Published values from different studies.
Every numbered part comes from another study and shows a few of its results, in no order.
Sequence of UniProt P62344 (whole entry, looked up): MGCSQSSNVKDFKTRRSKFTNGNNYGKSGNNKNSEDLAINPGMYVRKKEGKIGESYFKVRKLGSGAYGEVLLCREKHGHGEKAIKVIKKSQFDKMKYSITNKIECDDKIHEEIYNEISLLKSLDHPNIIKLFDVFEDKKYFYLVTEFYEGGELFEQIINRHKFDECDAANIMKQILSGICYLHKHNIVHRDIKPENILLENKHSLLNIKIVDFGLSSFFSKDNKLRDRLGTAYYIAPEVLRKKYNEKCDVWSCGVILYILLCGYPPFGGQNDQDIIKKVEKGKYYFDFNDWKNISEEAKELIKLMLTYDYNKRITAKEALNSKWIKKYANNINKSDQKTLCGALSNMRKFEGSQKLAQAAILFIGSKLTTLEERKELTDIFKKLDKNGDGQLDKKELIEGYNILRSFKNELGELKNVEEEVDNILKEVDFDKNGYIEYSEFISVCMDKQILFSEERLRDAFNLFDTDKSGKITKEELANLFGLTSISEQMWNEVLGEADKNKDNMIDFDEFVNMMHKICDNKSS

Study 1 — effect on: peptide-MHC binding; form: peptide; tested at: concentration not given
Target: HLA class I histocompatibility antigen, C alpha chain, allele C*04:01 (Homo sapiens, UniProt P10321)
Molecule | binding
QTDNQLAVF | inactive
VMAPRTLVL | inactive
MVIFFMSPK | inactive
RPAPARLPL | inactive

Study 2 — technique: RNA Bind-n-Seq; form: RNA; medium: in vitro; tested at: 365 nM; baseline: no-protein control; reading: higher = stronger binding
Target: RNA binding protein fox-1 homolog 2, RRM domain, GST-SBP tag (RBFOX2, Homo sapiens, UniProt O43251-10, residues 100-194)
Setting: natural RNA segment, single round, ends assumed
Residues (chain): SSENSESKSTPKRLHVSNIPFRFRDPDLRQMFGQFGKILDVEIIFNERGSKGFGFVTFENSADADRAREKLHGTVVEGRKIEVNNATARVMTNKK
Sequence | RBNS enrichment (R)
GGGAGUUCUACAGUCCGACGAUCCCCAGUUGAUGUCCUAUGUAGAGUUAAUUGUAAAACUUGAAGAAUUUCAGACAUAACCAACUUAUAAAUGACCUAUUUCUUCAGGCUAGCUUCUACAACACUGACCUCCAUGGAAUUCUCGGGUGCCAA | 0.382
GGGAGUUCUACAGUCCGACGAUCGUUAAGACACUACUUGGUGGACCUCAACCCCAGAACCACCAAAUUUGGCAUUUCUAAGUUCCUAGGUGAUGUUCUACUCACAGUCAGUCCAGAGGAUUACCUUAAGAGUCUGGAAUUCUCGGGUGCCAA | 0.354
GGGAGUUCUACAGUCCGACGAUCCAGUUUCCCUCCCUUCUCCCUCCAUCCGCAGCCACAGGGGAACUCGUCUCUUACAUACUCUCAUCUUCUCCCCCGCUCCCUUCCACUCCAAGGAGCGAGGAGGGCAAGCGUGGAAUUCUCGGGUGCCAA | 0.513
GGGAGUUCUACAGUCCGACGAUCGCUAGCCACACUCCGUGGCCCACCCUUUGUUACCAGUUCUUCCUCCUUCCUCUUUUCCCCUGCCUUUCUCAUUCCUUCCUUCGUCUCCCUUUUUGUUCCUUUGCCUCUUGUGGAAUUCUCGGGUGCCAA | 2.83
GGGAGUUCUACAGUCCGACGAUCAGAGAAAAGAGAAAGUGUUUUAUAUACGGUACUUAUUUAAUAUCCCUUUUUAAUUAGAAAUUAAAACAGUUAAUUUAAUUAAAGAGUAGGGUUUUUUUUCAGUAUUCUUGUGGAAUUCUCGGGUGCCAA | 0.786
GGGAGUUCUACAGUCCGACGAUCCACGCUCUCUCUUCUCUCCCAGGCUCUGGCUCAUGCACAUGCAACAGGUGCGUCUGUCUAUAUGUCUGGGUUCUUGUCUUUUGUGGUCUGUUUGUCUUUUCUACCUCUUUUGGAAUUCUCGGGUGCCAA | 0.733
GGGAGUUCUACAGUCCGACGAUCUGAGGAGUUAGGCUGUAGAAGUGACAGUUUCCAGUCAAAUCUGUAAACCCAGCCCCCAAGCUGAGACCAGUCUCCCUGUGGCGGAGCCAGCCAAGAUGGGGCCAUUCUCUUGGAAUUCUCGGGUGCCAA | 0.333
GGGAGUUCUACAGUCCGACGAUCGAAUCUUCCCUGUCAGGCUCUUACAGCCACAGGCACUGUGUCUACUGUCUGGAAGACAUGUCCCCAUGGCUGUGGGGCCGCUGCUUCUGUUUAAAUAAAAGUGGCCUGGAUGGAAUUCUCGGGUGCCAA | 0.365

Study 3 — technique: protein binding microarray; form: double-stranded DNA, one strand shown; medium: in vitro; tested at: not given; baseline: not given; reading: higher = stronger binding
Target: Histone acetyltransferase KAT6A, both winged helices, GST fusion (KAT6A, Homo sapiens, UniProt Q92794, residues 1-181)
Setting: 8-mer, flanks averaged, mean of 2 arrays, mostly near background
Construct (chain): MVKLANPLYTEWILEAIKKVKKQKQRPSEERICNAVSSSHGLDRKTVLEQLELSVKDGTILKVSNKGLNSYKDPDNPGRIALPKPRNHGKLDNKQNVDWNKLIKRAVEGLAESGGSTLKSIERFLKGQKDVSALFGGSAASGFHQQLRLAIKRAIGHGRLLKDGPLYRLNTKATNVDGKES
Sequence | E-score
AGTATAGG | -0.00556
CATGGTAA | -0.00541
GTGTTGCA | -0.0481
ATCCGCCA | 0.103
ACGGCAAG | 0.19
AACCGTCG | 0.307
ACAGATGA | -0.153
ACTTGCCG | 0.12

Mixed results
Substance | target or system | test | test system | conditions | scale | endpoint | value
Cc1cc(-n2nc(Cc3cc(F)cc(C(F)(F)F)c3)nc2C)ccc1C(N)=O | Calcium-dependent protein kinase 1 (CDPK1, Plasmodium falciparum, UniProt P62344) | cell-free assay, competition with immobilised ligand |  | 1 µM |  | remaining binding | 100%
AAAVRKPIVLKR | Saccharomyces cerevisiae | yeast competitive growth sequencing | peptide | concentration not given, peptide tiling library | baseline: Cln2-only background, direction not given | motif binding score | -0.246

Excerpt of the above (mixed results):
Substance | target or system | test | test system | conditions | scale | endpoint | value
Cc1cc(-n2nc(Cc3cc(F)cc(C(F)(F)F)c3)nc2C)ccc1C(N)=O | Calcium-dependent protein kinase 1 (CDPK1, Plasmodium falciparum, UniProt P62344) | cell-free assay, competition with immobilised ligand |  | 1 µM |  | remaining binding | 100%
AAAVRKPIVLKR | Saccharomyces cerevisiae | yeast competitive growth sequencing | peptide | concentration not given, peptide tiling library | baseline: Cln2-only background, direction not given | motif binding score | -0.246
